Experimental data gathered from unrelated publications.
Every numbered part comes from another study and shows a few of its results, in no order. Substitutions count along the parent as printed.

Set 1
Target: CCNA1, cyclin fold, Cln2 fusion (human)
Technique: yeast growth competition, sequencing
Matrix: yeast
Setting: weak parent motif
Relative to: not given
Direction: higher = stronger binding
Starting sequence: INSM1 docking peptide (human); PKAIRKLHFEDEV
`F9C` — result for “normalised enrichment score”: -0.0648.
`L7H`: “normalised enrichment score” 0.165.
`I4H` — result for “normalised enrichment score”: 1.01.
Under “normalised enrichment score”, `H8N` is recorded as 1.24.
`K2M` — result for “normalised enrichment score”: 0.184.
Under “normalised enrichment score”, `F9K` is recorded as -0.559.
For `E10D`, “normalised enrichment score” read 0.348.
`D11L`: “normalised enrichment score” 0.419.
For `E10T`, “normalised enrichment score” read 0.391.
`F9Y`: “normalised enrichment score” 0.307.

Set 2
Target: Histone acetyltransferase KAT6A, winged helix 1, GST fusion (KAT6A, Homo sapiens, UniProt Q92794, residues 1-85)
Technique: protein binding microarray
Molecule type: double-stranded DNA, one strand shown
Matrix: in vitro
Concentration: not given
Setting: 8-mer, flanks averaged, mean of 2 arrays, mostly near background
Relative to: not given
Direction: higher = stronger binding
Target sequence (chain): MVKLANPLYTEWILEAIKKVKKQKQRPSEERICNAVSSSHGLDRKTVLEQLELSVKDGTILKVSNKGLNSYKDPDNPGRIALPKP
`CGCTTATA` has an E-score of 0.251.
The E-score of `TCCGCCGA` is reported as 0.391.
The E-score of `GACATATA` is reported as 0.00108.
`GCCAATCC` gave an E-score of -0.0471.
The E-score of `ACGGGAGA` is reported as 0.09.
`AGGCGTCA` has an E-score of -0.0558.
The E-score of `AGAGGAAT` is reported as -0.256.
With `CCTGACGC` the E-score was 0.0604.
With `AACGAGGC` the E-score was -0.111.
`GCTTGATA` gave an E-score of 0.00449.
For `CTTTATTA`, the E-score was -0.0911.
For `ACTGTCTG`, the E-score was -0.122.
For `GTACCAAC`, the E-score was -0.062.
The E-score of `ATCACATC` is reported as -0.2.
With `CCCCGCGC` the E-score was 0.425.

Set 3
Target: ABI1, truncated, D143A, DHFR fusion (Arabidopsis thaliana)
Technique: DHFR PCA, deep sequencing
Matrix: yeast
Setting: methotrexate growth selection, single substitutions
With: (+)-ABA 4.8 µM
Relative to: wild-type fitted maximum
Direction: higher = stronger binding
Starting sequence: PYL1, truncated, DHFR fusion (Arabidopsis thaliana); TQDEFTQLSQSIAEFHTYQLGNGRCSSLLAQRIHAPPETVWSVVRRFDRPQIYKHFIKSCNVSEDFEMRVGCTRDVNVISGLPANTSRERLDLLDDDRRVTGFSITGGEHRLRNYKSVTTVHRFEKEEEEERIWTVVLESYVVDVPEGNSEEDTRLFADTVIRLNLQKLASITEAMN; partner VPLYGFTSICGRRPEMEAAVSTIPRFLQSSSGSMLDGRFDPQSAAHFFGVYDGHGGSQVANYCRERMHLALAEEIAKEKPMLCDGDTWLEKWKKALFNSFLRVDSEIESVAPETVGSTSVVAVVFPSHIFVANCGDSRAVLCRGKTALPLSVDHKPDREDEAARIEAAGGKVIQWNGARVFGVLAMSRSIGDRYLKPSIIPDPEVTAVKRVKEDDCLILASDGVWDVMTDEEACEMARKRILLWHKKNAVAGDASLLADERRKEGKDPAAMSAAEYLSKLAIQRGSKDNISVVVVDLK
Under “relative binding score”, `R99G` is recorded as 12.1%.
Under “relative binding score”, `S11A` is recorded as 76.1%.
`W134K`: “relative binding score” 35.9%.
Under “relative binding score”, `V136S` is recorded as 0.674%.
`H122K`: “relative binding score” -8.66%.
Under “relative binding score”, `I133D` is recorded as 96.9%.
Under “relative binding score”, `K116M` is recorded as 0.342%.
For `L91C`, “relative binding score” read 26.3%.
Under “relative binding score”, `Q2G` is recorded as 52.4%.
Under “relative binding score”, `L93K` is recorded as 44.1%.
For `L91S`, “relative binding score” read -10.5%.
Under “relative binding score”, `E139R` is recorded as -3.4%.

Further values, each from its own experiment
The fold induction of `PhoQ, residues 284 288 289 292 302 303 ASVMEA` is reported as 20.5 (PhoP, residues 12 14 15 18 19 LYHSL (Escherichia coli, UniProt P23836); Sort-seq, item: YFP reporter; E. coli; PhoQ-PhoP variant library, with: 10 µM Mg2+; relative to: high Mg2+ state, higher = stronger signaling).

A few entries again (set 3):
Under “relative binding score”, `E139R` is recorded as -3.4%.
Under “relative binding score”, `S11A` is recorded as 76.1%.
Under “relative binding score”, `I133D` is recorded as 96.9%.
